Measured values from different studies.
Every numbered part comes from another study and shows a few of its results, in no order.
Chain of UniProt Q9XED8 (whole entry, looked up): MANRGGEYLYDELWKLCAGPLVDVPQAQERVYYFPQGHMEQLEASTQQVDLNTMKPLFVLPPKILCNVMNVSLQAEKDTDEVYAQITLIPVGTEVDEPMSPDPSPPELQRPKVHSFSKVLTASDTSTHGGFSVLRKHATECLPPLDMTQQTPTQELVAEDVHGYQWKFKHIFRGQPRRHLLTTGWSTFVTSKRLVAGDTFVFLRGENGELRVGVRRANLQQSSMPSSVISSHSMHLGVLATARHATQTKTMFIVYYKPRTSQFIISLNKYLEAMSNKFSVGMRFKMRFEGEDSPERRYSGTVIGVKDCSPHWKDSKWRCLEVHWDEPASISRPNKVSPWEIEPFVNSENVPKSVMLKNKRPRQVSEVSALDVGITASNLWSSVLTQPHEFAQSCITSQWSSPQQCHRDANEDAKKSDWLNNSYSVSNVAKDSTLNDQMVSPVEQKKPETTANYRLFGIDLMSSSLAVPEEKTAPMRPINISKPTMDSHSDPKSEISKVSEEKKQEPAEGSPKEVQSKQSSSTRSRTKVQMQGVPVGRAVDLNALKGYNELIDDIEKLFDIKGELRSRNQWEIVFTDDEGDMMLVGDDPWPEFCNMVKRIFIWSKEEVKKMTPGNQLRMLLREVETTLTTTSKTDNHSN
Chain of UniProt Q9Y2K2 (whole entry, looked up): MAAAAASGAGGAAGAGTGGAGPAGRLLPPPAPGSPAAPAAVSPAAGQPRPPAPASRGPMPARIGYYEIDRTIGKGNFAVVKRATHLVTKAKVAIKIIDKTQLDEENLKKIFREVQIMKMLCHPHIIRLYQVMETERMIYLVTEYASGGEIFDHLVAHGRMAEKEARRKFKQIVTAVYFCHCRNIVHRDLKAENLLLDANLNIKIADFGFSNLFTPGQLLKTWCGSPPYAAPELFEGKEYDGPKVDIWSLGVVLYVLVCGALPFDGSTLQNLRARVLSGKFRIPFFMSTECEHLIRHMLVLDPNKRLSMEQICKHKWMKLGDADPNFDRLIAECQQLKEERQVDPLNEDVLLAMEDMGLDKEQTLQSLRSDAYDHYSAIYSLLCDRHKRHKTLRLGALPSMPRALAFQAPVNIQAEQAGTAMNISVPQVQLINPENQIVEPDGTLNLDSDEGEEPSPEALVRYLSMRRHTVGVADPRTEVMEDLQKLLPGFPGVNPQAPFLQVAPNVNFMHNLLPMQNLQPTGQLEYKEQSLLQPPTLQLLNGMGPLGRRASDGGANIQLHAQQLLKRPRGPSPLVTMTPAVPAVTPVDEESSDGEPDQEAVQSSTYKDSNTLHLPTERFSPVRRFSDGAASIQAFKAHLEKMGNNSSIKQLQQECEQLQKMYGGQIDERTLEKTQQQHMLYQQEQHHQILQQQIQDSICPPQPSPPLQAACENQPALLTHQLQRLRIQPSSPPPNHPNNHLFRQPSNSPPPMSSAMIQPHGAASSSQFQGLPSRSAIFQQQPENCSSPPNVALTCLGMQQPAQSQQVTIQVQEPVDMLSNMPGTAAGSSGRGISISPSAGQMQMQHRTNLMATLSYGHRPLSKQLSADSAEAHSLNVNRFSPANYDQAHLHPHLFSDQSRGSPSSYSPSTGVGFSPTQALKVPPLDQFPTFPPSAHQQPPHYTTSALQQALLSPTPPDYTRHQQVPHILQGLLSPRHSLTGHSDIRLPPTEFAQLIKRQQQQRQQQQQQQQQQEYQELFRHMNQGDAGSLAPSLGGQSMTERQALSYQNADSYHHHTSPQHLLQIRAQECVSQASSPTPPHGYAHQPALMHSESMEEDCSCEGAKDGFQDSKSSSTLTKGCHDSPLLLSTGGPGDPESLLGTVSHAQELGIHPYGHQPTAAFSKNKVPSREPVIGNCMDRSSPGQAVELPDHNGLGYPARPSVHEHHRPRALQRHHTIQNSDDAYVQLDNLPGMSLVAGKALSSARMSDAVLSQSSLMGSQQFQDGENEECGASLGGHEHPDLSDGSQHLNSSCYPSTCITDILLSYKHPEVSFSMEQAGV
Chain of UniProt Q8WU08 (whole entry, looked up): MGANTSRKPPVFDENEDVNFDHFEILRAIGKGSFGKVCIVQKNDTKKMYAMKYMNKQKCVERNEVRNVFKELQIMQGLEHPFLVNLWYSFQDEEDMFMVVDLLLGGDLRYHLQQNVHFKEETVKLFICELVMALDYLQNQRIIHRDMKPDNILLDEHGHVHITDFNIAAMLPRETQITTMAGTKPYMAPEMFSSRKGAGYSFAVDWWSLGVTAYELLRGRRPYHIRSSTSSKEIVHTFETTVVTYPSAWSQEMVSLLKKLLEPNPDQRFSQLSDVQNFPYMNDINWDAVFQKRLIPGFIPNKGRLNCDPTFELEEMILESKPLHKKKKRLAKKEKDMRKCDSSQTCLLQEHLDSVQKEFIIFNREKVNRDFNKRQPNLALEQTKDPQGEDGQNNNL
Chain of UniProt Q9LQE8 (whole entry, looked up): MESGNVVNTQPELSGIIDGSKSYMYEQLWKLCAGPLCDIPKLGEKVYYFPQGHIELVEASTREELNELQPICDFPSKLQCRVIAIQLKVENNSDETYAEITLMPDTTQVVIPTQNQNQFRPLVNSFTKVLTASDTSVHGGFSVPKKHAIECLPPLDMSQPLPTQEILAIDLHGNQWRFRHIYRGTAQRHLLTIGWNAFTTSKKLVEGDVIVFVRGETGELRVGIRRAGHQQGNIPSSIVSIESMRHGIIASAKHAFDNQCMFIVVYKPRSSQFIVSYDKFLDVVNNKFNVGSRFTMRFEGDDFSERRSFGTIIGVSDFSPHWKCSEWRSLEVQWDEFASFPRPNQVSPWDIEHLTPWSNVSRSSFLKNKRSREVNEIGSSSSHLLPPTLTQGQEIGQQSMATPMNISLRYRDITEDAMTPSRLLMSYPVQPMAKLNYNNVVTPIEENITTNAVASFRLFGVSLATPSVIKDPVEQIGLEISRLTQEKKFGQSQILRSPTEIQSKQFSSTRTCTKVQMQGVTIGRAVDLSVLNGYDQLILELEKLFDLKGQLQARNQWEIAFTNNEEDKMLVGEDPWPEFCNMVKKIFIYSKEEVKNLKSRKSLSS
Chain of UniProt Q94JM3 (whole entry, looked up): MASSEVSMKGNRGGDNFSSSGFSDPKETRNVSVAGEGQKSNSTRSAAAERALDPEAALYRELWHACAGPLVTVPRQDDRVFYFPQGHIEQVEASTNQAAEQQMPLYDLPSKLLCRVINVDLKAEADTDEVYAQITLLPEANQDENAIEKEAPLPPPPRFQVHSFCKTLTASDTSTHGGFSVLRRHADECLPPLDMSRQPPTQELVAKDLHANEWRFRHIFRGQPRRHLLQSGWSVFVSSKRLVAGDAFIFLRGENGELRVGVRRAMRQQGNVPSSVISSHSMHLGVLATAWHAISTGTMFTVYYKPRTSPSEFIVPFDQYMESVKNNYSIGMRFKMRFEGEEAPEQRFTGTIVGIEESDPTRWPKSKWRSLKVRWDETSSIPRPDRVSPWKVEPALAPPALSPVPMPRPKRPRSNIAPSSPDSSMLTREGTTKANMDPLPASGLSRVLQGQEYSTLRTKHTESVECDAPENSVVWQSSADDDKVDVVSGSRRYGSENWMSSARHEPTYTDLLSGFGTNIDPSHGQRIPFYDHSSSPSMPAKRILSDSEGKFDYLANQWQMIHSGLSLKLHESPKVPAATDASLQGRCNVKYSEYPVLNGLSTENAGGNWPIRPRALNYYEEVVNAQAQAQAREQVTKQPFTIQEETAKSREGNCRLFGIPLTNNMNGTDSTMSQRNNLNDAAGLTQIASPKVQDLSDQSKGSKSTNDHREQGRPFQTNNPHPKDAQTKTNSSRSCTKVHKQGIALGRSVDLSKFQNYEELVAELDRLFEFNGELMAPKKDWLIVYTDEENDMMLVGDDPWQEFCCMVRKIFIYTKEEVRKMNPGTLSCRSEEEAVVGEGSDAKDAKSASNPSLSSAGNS
Chain of UniProt Q38824 (whole entry, looked up): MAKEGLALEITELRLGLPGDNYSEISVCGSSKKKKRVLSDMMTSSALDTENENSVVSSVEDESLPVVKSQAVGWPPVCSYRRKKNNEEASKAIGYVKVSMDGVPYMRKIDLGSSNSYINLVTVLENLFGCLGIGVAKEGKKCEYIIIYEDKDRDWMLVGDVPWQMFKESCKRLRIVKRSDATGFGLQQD
Chain of UniProt Q9ZTX8 (whole entry, looked up): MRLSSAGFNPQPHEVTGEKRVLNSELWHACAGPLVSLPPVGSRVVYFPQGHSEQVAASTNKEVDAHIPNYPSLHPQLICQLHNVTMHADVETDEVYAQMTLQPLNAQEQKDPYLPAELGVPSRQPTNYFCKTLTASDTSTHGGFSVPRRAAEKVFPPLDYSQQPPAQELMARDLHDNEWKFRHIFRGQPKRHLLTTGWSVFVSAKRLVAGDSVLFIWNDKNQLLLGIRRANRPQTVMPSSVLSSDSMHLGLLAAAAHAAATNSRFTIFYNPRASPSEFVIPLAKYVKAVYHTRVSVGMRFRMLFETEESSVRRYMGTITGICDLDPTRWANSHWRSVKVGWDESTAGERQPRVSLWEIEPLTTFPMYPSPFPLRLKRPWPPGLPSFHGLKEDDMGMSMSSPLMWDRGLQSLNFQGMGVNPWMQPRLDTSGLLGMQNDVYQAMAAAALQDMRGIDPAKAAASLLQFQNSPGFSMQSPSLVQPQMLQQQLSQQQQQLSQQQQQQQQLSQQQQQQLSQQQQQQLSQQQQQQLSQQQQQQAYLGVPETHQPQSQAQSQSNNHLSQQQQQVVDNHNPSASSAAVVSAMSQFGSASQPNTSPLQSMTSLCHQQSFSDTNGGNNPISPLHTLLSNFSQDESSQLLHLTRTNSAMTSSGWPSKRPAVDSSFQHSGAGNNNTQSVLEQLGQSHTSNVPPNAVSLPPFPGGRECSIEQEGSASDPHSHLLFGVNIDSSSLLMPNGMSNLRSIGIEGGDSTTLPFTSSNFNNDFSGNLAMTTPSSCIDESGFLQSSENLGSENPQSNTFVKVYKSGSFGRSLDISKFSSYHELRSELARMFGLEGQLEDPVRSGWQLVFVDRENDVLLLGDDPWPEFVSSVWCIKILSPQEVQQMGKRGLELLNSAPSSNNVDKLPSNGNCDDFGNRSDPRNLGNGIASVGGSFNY

Series 1
Target: PABPC1L2, full length, GST fusion (mouse, UniProt A0ABA7IW68)
Technique: RNAcompete
Form: RNA
Medium: in vitro
Tested at: 20 nM
Setting: 7-mer, probes averaged, single round
Relative to: mean of 7-mers
Direction: higher = stronger binding
Residues (chain): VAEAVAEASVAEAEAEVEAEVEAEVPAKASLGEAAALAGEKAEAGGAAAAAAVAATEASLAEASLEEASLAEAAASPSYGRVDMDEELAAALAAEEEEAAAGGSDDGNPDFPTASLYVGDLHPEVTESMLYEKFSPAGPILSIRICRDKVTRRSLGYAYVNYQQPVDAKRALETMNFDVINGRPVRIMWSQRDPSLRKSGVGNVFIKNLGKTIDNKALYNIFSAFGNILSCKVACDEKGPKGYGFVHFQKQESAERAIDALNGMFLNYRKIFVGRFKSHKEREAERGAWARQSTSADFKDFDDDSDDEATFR
| Sequence | 7-mer Z-score |
| --- | --- |
| AACUUGA | 0.166 |
| CAAACAG | 1.51 |
| GGGGGGU | 0.227 |
| CCGUCCA | -0.351 |
| AUACGCU | -0.184 |
| GACGCGU | -0.206 |
| GGUGUGC | 0.0605 |
| UUAGCGC | -0.182 |

Series 2
Molecule: B1 (IAA1)
Technique: two-hybrid
Direction: higher = firmer interaction
B1: IAA1 (Arabidopsis thaliana, UniProt P49677); chain MEVTNGLNLKDTELRLGLPGAQEEQQLELSCVRSNNKRKNNDSTEESAPPPAKTQIVGWPPVRSNRKNNNNKNVSYVKVSMDGAPYLRKIDLKMYKNYPELLKALENMFKFTVGEYSEREGYKGSGFVPTYEDKDGDWMLVGDVPWDMFSSSCQKLRIMKGSEAPTAL
| partner | setting | relative to | positive tests |
| --- | --- | --- | --- |
| IAA32 (Arabidopsis thaliana, UniProt Q8RYC6) |  | out of 4 tests | 0 |
| IAA8 (Arabidopsis thaliana, UniProt Q38826) |  | out of 4 tests | 4 |
| ARF2 727-859 (Arabidopsis thaliana, UniProt Q94JM3) |  | out of 2 tests | 0 |
| IAA6 (Arabidopsis thaliana, UniProt Q38824) |  | out of 4 tests | 0 |
| ARF6 790-935 (Arabidopsis thaliana, UniProt Q9ZTX8) |  | out of 4 tests | 2 |
| ARF9 519-638 (Arabidopsis thaliana, UniProt Q9XED8) | weak activation fusion | out of 4 tests | 2 |
| IAA3 (Arabidopsis thaliana, UniProt Q38822) |  | out of 4 tests | 4 |
| ARF14 497-605 (Arabidopsis thaliana, UniProt Q9LQE8) |  | out of 2 tests | 0 |

Single results of other studies
| SMILES | tested on | observed | technique | medium | tested at | measurement | value |
| --- | --- | --- | --- | --- | --- | --- | --- |
| CN(C)C(=O)Cn1cc(-c2nc([C@@](C)(c3ccc(-c4cnc(N)nc4)cc3)C3CC3)no2)cn1 | Serine/threonine-protein kinase 32A (STK32A, Homo sapiens, UniProt Q8WU08) | cell-free assay | competition with immobilised ligand |  | 1 µM | remaining binding | 83% |
| CCOC(=O)[C@@H]1CSCC(=O)N[C@@H](CC)C(=O)N(C)[C@@H](C)C(=O)N[C@H](CC(C)C)C(=O)N2CCC[C@H]2C(=O)N(CC)CC(=O)N[C@@H](CC(C)C)C(=O)N(C)[C@H](C)C(=O)N[C@@H](CC(C)C)C(=O)N1C |  |  |  | hydrocarbon/water |  | logD | -0.38 |
| CCCOc1ccc([C@@H]2[C@@H](C(=O)O)[C@H](c3ccc4c(c3)OCO4)CN2CC(=O)Nc2c(CC)cccc2CC)cc1 | Serine/threonine-protein kinase SIK3 (SIK3, Homo sapiens, UniProt Q9Y2K2) | cell-free assay | competition with immobilised ligand |  | 1 µM | remaining binding | 89% |
